Measured values from different studies.
Every numbered part comes from another study and shows a few of its results, in no order. Positions count from the first letter of the parent shown.

Block 1 — method: RNA Bind-n-Seq; molecule type: RNA; matrix: in vitro; tested at: 365 nM; relative to: no-protein control; reading: higher = stronger binding
Target: RNA binding protein fox-1 homolog 2, RRM domain, GST-SBP tag (RBFOX2, Homo sapiens, UniProt O43251-10, residues 100-194)
Notes: natural RNA segment, single round, ends assumed
Shared flanks, not repeated: GGGAGUUCUACAGUCCGACGAUC … UGGAAUUCUCGGGUGCCAA
Target sequence (chain): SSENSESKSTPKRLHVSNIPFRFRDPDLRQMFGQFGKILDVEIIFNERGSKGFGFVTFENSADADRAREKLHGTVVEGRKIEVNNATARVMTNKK
For `AGAUUGUGCAUCUGCAUUCAACUACCCUGAACCCUUAGGGAAGAAAUGGAUUCCCUGGCUGAGCCAGUGUCUCUUUCCCACUGUCCUUUCUCCAGGUGUGCAGAUGGCAU`, “RBNS enrichment (R)” read 0.301.
For `UUUCACAGUUAUUUCUAUCCACGCCUAUGAAUCUUUGGACGGUGAGAUCUCACAGAUGUCAGAACUGCUGGAACUAUGAAAUGGGGUAUAUAACCACGACUCUGGUGGGG`, “RBNS enrichment (R)” read 1.17.
`AGUCAGGCUGUGGGCAAGUUCCUGACCACAGGGAGUAAAUUGGCCUCUUUGAUACACUUUUGCUUGCCUCCCCAGGAAAGAAGGAAUUGCAUCCAAGGUAUACAUACAUA`: “RBNS enrichment (R)” 0.318.
Under “RBNS enrichment (R)”, `CAGUGUCUCAGAACUGAAUAACUGCAGUGACUUGAUGCUCUAAAACAGUGUAGGAUUUAAGAAUAGAUGGUUUUUAAUCCUGGAAAUUGUGAUUGUGACCCAUGAGUGGA` is recorded as 0.518.
Under “RBNS enrichment (R)”, `AGCCUGGUCUCUGAGGUGCUUUCUAACAGCUGGAGGCACUUGUUCUGGGCUUUCCUUUGCCCUCAGUUUUUCACAGGUAGGUAGUAGCCAUGGAGGGCUGAAGCCCAGGC` is recorded as 0.778.
For `GAUUAAGCCACACCUUUCCAUUUUUCAAUGCUGCAUAUUUAAUCUGCAAAAAAAAGUUAAGCCAUAACAGCCUUUUUAUAUUUUAAUUUGUCACCUUUGCAUUGCAGAAU`, “RBNS enrichment (R)” read 0.999.
`UGACACAGACUGCCUGCCUUGAAGCUGAGAAGGCACAGGGCAAGGAGCCAAGGACCACAGAGCCUCAGCCAGCCCAGGAUCCGUCCUCAUUUUAUUGGUGAUGAUGAAUG`: “RBNS enrichment (R)” 0.255.
For `CACCAGCGUCUGUCUUAAAGGUAGGGCCAAUUUCAUGGAGCAUUUUUCUGUGUGUGUCCUUGUUGCUUUUGCCAGAAAAAGUGGAUUUGACAUGCGUGCCCCGAUGCCAC`, “RBNS enrichment (R)” read 0.725.
`CCAGAGAUGAUGGCAGUCCAGCAGCAACUCCCUGUGCUCCCUUCUCUUUGGGCAGAGAUUCUAUUUUUGACAUUUGCACAAGACAGGUAGGGAAAGGGGACUUGUGGUAG` — result for “RBNS enrichment (R)”: 0.72.
For `UACUCAGGCAGUCGACCCGCCACGAUGAGAAGUGGGACCAGCAGAGGGCGCCAACUUCAGGAGUCCGCUUUCCCACCAGGCUUCAUUCACCCAGUGGACCUGAACUGUUU`, “RBNS enrichment (R)” read 0.187.
`UGCACCUUGGGAAGACUUGCUUUGCAUUCUGCCUCAAGAGCUUCUCAUUGAUGUCCAUCUGGAGGCCAGGGGGGUCUUGGAACUACCAUUUUUUUUUCCUUUAGAUCAAC`: “RBNS enrichment (R)” 0.746.
`UCUUAAAAACGUUUAAUGCCAGGCUGUGGUCAAAAUCUCUAUUUUAUUUGUUUCUCCAGUAUAUAGCUUUGUUUUAGCCUUUGUAAAUUACUUUUAUGAUAGUAGAAAUA` — result for “RBNS enrichment (R)”: 0.963.

Block 2 — method: protein binding microarray; molecule type: double-stranded DNA, one strand shown; matrix: in vitro; tested at: not given; relative to: not given; reading: higher = stronger binding
Target: Histone acetyltransferase KAT6A, winged helix 2, GST fusion (KAT6A, Homo sapiens, UniProt Q92794, residues 85-181)
Notes: 8-mer, flanks averaged, mean of 2 arrays, mostly near background
Target sequence (chain): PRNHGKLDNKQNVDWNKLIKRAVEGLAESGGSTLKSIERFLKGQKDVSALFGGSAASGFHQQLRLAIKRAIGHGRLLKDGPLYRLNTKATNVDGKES
`AGCGGGCG` gave an E-score of 0.158.
With `AAGAGTCT` the E-score was -0.244.
`GGCTTCCC` gave an E-score of 0.0924.
With `CCTTCTTA` the E-score was 0.112.
`CTAAGCTA` gave an E-score of -0.0121.
The E-score of `CGTTTACA` is reported as 0.0474.
`ACCACATC` gave an E-score of -0.0399.
With `GCACAAAA` the E-score was 0.238.
The E-score of `GCCAGCTA` is reported as -0.0478.
The E-score of `ACCCCTAA` is reported as -0.165.
For `AGAGCCGC`, the E-score was 0.0538.
With `TAATTGCA` the E-score was 0.116.
With `CGCACAAA` the E-score was 0.215.
`CGAGCGAA` gave an E-score of 0.108.
`GCTATTAC` has an E-score of -0.057.
`GCTCACAA` has an E-score of 0.156.

Block 3 — method: protein-binding microarray; molecule type: double-stranded DNA, one strand shown; matrix: in vitro; tested at: 2540 nM top; notes: 60-bp whole probe; together with: salmon DNA 0.4 mg/ml; relative to: random background probes; reading: higher = stronger binding; shared flanks, not repeated: GCCTAGCAC … GTCTTGATTCGCTTGACGCTGCTG
Target: Interferon regulatory factor 3, full length, phosphomimetic (IRF3, Homo sapiens, UniProt Q14653, residues 1-427, S386D/S396D/S398D/S402D/T404D/S405D)
Residues (chain): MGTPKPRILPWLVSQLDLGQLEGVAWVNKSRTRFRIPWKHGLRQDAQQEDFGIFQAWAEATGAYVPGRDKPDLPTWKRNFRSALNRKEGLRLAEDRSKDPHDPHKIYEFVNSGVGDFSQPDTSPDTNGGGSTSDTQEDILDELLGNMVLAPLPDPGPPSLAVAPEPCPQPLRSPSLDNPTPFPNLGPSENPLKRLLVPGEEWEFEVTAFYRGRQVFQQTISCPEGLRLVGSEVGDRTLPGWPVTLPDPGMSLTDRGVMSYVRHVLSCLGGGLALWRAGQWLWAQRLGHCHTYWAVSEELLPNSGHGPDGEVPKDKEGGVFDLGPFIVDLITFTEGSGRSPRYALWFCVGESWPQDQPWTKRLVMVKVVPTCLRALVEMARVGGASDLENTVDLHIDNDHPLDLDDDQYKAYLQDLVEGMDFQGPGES
`GACGGACTGCTTAACCTGACGTGCTAG`: “fitted relative affinity” -0.327 z-score.
`GACGAACTGGGAACTGGAGACGTGCTA` — result for “fitted relative affinity”: -0.0863 z-score.
`TCATGTGTTACTTTCTAACTGTGCTAG`: “fitted relative affinity” 1.72 z-score.
For `TTAGATAACAGACTGGATTAGTGCTAG`, “fitted relative affinity” read -0.238 z-score.
For `TTAGATTTCGGAACTGGATTAGTGCTA`, “fitted relative affinity” read 4.15 z-score.
For `TTAGGTATCAGTATCGATTAGTGCTAG`, “fitted relative affinity” read 3.85 z-score.
Under “fitted relative affinity”, `TTAGATTTCGGGTTTCGATTCGTGCTA` is recorded as 4.04 z-score.
`GTAGATTTCGGGTATCGATTAGTGCTA`: “fitted relative affinity” 1.68 z-score.
For `TTAGTTTTCAATTTTTGCATGTGCTAG`, “fitted relative affinity” read 2.63 z-score.
For `GACGGTCTCGGTCTTGGGACGTGCTAG`, “fitted relative affinity” read 1.2 z-score.
Under “fitted relative affinity”, `TTAGAAATGGGGACTGGATTAGTGCTA` is recorded as -0.457 z-score.
`GAGGTTTTCTAATGTTTTTTAGTGCTA` — result for “fitted relative affinity”: 1.02 z-score.
`GCTCCTTCCCCTCTAGGTCTGTGCTAG` — result for “fitted relative affinity”: 1.13 z-score.
`GACGGTATCGGAATCGGGACGTGCTAG`: “fitted relative affinity” 4.51 z-score.
`ATTCTCTTCTTGCATCTGGGTGTGCTA` — result for “fitted relative affinity”: 2.73 z-score.
Under “fitted relative affinity”, `TCAAGAATGGGGTTTGCAACTGTGCTA` is recorded as -0.708 z-score.
`TCACGGGCTTCTTTTTCTACTGTGCTA` — result for “fitted relative affinity”: -0.349 z-score.
`TCAACTCTTCTTTTTTTACTGTGCTAG`: “fitted relative affinity” 0.947 z-score.
For `GACGATTTCAGTATCGGGACGTGCTAG`, “fitted relative affinity” read 2.8 z-score.
`GACGGTTTCGGGTCTGGGGACGTGCTA`: “fitted relative affinity” 5.9 z-score.
`TCATATTTAGAACTTCTCACTGTGCTA`: “fitted relative affinity” 0.704 z-score.
`TTAGATATAGGGTATCGATTAGTGCTA`: “fitted relative affinity” 0.0355 z-score.
`CATTATATTTTAATCACATAGTGCTAG`: “fitted relative affinity” 1.55 z-score.
`TCAGCTATGTTGTCCAGGACTGTGCTA`: “fitted relative affinity” -0.539 z-score.
For `GACGGACTGGGCTTCGGGACGTGCTAG`, “fitted relative affinity” read -0.921 z-score.

Block 4 — method: universal PBM; molecule type: double-stranded DNA, one strand shown; matrix: in vitro; tested at: not given; reading: higher = stronger binding
Target: Sal-like protein 4, full length isoform B (SALL4, Homo sapiens, UniProt Q9UJQ4-2, residues 1-616)
Notes: 8-mer, flanks averaged, mean of replicates
For `GTGGAACA`, the E-score was -0.0723.
`AAGCGCCT` gave an E-score of -0.183.
For `ACAATCTA`, the E-score was 0.127.
The E-score of `GAACGCCA` is reported as -0.2.
The E-score of `CCATCAGA` is reported as -0.0972.
With `CACCCATC` the E-score was 0.105.
`AGCCACTA` gave an E-score of 0.022.
For `ACACTCTA`, the E-score was 0.104.
With `GCCTAAAC` the E-score was -0.0596.
The E-score of `CCGGGTTA` is reported as -0.228.
With `GGAGTAAC` the E-score was -0.161.
`ACTCGTAA` gave an E-score of 0.182.
`CGAGGATC` gave an E-score of -0.123.
For `CTAAACGA`, the E-score was -0.0493.
`ACAGCCTA` gave an E-score of 0.0312.
`CGTAACGC` gave an E-score of -0.145.
The E-score of `ACATCCCG` is reported as 0.00462.
For `ATTGGCCG`, the E-score was -0.0739.
`GCTGGAGA` has an E-score of -0.196.
For `TAAACCCA`, the E-score was 0.222.
With `AGGTTATG` the E-score was 0.221.
The E-score of `CGGTACCG` is reported as -0.357.
`AGATCGGA` gave an E-score of 0.0409.

Block 5 — target: CCND1, cyclin fold, Cln2 fusion (human); method: yeast growth competition, sequencing; matrix: yeast; notes: weak parent motif; relative to: not given; reading: higher = stronger binding
Starting sequence: E2F8 docking peptide (human); FVPQRKLEVSTED
Under “normalised enrichment score”, `FVPQKKLEVSTED [R5K]` is recorded as 0.123.
For `FVPQRKLEVSTAD [E12A]`, “normalised enrichment score” read 0.0705.
`FVAQRKLEVSTED [P3A]`: “normalised enrichment score” 0.608.
`FVPQRKLEFSTED [V9F]`: “normalised enrichment score” 0.351.
For `FVPQAKLEVSTED [R5A]`, “normalised enrichment score” read 0.00151.
`FVPQRKLEVATED [S10A]`: “normalised enrichment score” -0.0729.
`AVPQRKLEVSTED [F1A]`: “normalised enrichment score” 0.648.
`FVPQRKAEVSTED [L7A]` — result for “normalised enrichment score”: -0.0531.

Excerpt of the above (block 2):
With `AAGAGTCT` the E-score was -0.244.
`GGCTTCCC` gave an E-score of 0.0924.
With `CCTTCTTA` the E-score was 0.112.
`CTAAGCTA` gave an E-score of -0.0121.
The E-score of `CGTTTACA` is reported as 0.0474.
`ACCACATC` gave an E-score of -0.0399.
With `GCACAAAA` the E-score was 0.238.
The E-score of `GCCAGCTA` is reported as -0.0478.
